Assay results pooled from the literature.
Each numbered part is a random draw from the data of one study; scales do not carry over between parts.

Set 1
Target: Histone acetyltransferase KAT6A, winged helix 1, GST fusion (KAT6A, Homo sapiens, UniProt Q92794, residues 1-85)
Technique: protein binding microarray
Form: double-stranded DNA, one strand shown
Medium: in vitro
Tested at: not given
Notes: 8-mer, flanks averaged, mean of 2 arrays, mostly near background
Baseline: not given
Direction: higher = stronger binding
Quantity: E-score
Construct (chain): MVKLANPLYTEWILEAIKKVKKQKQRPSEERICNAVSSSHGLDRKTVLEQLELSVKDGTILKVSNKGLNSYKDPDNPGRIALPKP
ATCTAAGA: -0.249
GTTTCAAA: -0.0872
ACTTCCCT: -0.139
GCATAGGA: -0.0526
AACGTCCA: -0.139
TGTACACA: -0.161
CCTATCAG: -0.178
AAATATGT: -0.0353
CACATAGG: -0.189
CCGGGGAG: 0.215
CGACCACA: -0.117
GATGCACA: -0.0853
CCTAGTTC: -0.189
ATATCTCA: -0.183
ACGAGCAT: -0.282
AAACAAAT: -0.191
TCTCCGCA: 0.161
GTAGTCAC: -0.0818
AAGAGTAT: -0.179
CCCATACC: 0.108

Set 2
Target: Interferon regulatory factor 5, full length, phosphomimetic (IRF5, Homo sapiens, UniProt Q13568-2, residues 1-514, S451D/S453D/S456D/S462D)
Technique: protein-binding microarray
Form: double-stranded DNA, one strand shown
Medium: in vitro
Tested at: 940 nM top
Notes: 60-bp whole probe
With: salmon DNA 0.4 mg/ml
Baseline: random background probes
Direction: higher = stronger binding
Quantity: fitted relative affinity
Shared flanks, not repeated: GCCTAGCAC … GTCTTGATTCGCTTGACGCTGCTG
TCAGTCCTCACTTCCTTCTGGTGCTAG: 0.929 z-score
GACGGCATCGGGACTGGGGACGTGCTA: -0.381 z-score
GACGTTATCCTTATCCTGACGTGCTAG: 0.551 z-score
TTAGGACTGGGTATCAGTTAGTGCTAG: 0.384 z-score
TTAAGTCTCGGACTGGGTTAGTGCTAG: 1.68 z-score
GACGGACTGGGTTTCGGTACGTGCTAG: 5.94 z-score
GTCGATATCGGGTATCGAGACGTGCTA: 1.67 z-score
TTAGGTATCGACTTTCGGGTAGTGCTA: 5.21 z-score
TTAGGACTGCTACTTCTTTAGTGCTAG: -0.575 z-score
GACGGACTGGGTCTCGGGAAGTGCTAG: -0.23 z-score
CTTTTTCCCTATTATATATATGTGCTA: 2.34 z-score
GACGGTTCCGGGTTCGGGACGTGCTAG: 1.13 z-score
GACGATTTCAGACGGGAGACGTGCTAG: -0.258 z-score
TTAGAACTGGGGACTGGATTCGTGCTA: -0.208 z-score
TCATATGTCCTGTCTACAACTGTGCTA: 0.543 z-score
GAGGCTTTTTTTTTTTTTTTGTGCTAG: 0.326 z-score
TTAGGTATCGGGACTTGGTTAGTGCTA: 3.83 z-score
GACGGGTTCGGTATCGGGACGTGCTAG: 1.82 z-score
TTAGAAATGAGTCTCGATTAGTGCTAG: 3.16 z-score
TTAGATATCGACTATCGGTTAGTGCTA: 0.597 z-score
GACGGTTTCGTTTCCGGGACGTGCTAG: 8.31 z-score
CTTGATTTTGGTCTTTCTGTGTGCTAG: 0.711 z-score
GACGGTATCAGGTTTCGGGACGTGCTA: 3.97 z-score
TCAGGTCTCTTGTTCTCACTGTGCTAG: 1.02 z-score
TCATTTTTCTCACCACATACTGTGCTA: 1.74 z-score

Set 3
Target: RNA binding protein fox-1 homolog 2, RRM domain, GST-SBP tag (RBFOX2, Homo sapiens, UniProt O43251-10, residues 100-194)
Technique: RNA Bind-n-Seq
Form: RNA
Medium: in vitro
Tested at: 365 nM
Notes: natural RNA segment, single round, ends assumed
Baseline: no-protein control
Direction: higher = stronger binding
Quantity: RBNS enrichment (R)
Shared flanks, not repeated: GGGAGUUCUACAGUCCGACGAUC … UGGAAUUCUCGGGUGCCAA
Residues (chain): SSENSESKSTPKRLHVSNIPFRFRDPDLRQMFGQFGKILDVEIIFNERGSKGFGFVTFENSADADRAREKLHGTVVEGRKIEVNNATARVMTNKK
CUUAUCAAACUCAGCCCAAAACUCUGUUUACAUGGGUGGGGAGAUGGAGCAGGGAAGUACAGAGUGGGAUGGUCAGGACCUGGGCCAUUGCAACCAAAAUGGGGACUUCC: 0.408
UUUUAUGACUCCAGUCUGCAAGCAGUGUUAGGUUGACCUCAUAGGCUUUUAUGAUUCCAGUCUGCUGGUAUGAAGCAGAGCAUCAAAAAAAAUUCGUGAUUCCUUGAGUG: 0.635
AACUGGGGAAGCUUCUGUACUAGUCUCCUUCAACGCAGCUGGCUUUGACUGAGUGCUUUGACAGUUUGAGACUUCACCAAGUAUAGUAGAAAAACAAAUGGCCUCAACUU: 0.235
UGAGCCUAGGGAGCUGGGAAAACAGUUGGGCCUAGUCUGUUUUUGAAUUGCAUUGCAUUGAGUUGUACCGGUAUUGCACAGCCCUGCGUGUGAGCCAGAUGUAACACUCC: 4.53
CACCACCUCUGCCAUGCCCUGUAUCCCGAGAGCUGCACACACUGCUUCCAGAUUGCUGGUUCCAGAAGAUGUAAUUUGCCACUGUGUGCUGCACGGCUAGGGAGUGUCAU: 0.675
UUUUAGCUUAAAAGCAUAGUGAAGAUGCUUGAGGAAGACUUUGCUACCUGGGGUGUGUAGACAGACAGACUGAGAGCUAUCAGCAUUUGAAGGCCCAGCCCUUGACUCUG: 3.49
UUCUUGCUGAUCACAUUGACACUGUCUGUGUUUGAUUUGCUGAGCUCUUGGAUGUUGGGAGUGUAGCAGGCACAGGAGGUACCUCUGCAGAAGGAAGGCGGAGGGUGGAG: 1.43
CCUGCUGUGGUUAACCUGUUAUGUUGCUUUUGGAAGGAGACUCUAAGACAGGGAAAGCAAGUUCAUGGUACAUACGCAGCCAUUGUCUCUGUUUUUACCCAUGGCAGACA: 1.1
GUCACCCCAGACACCGCCCCUCACUUCAUGUACUGGACGGGAGCCGUCCGUCCAUCUGUCCCUGCUGGUCUCUGUCUAGAGAGUGCUGUUCGGGAUCUGCUCCUUCUGUC: 0.421
CCCCUUACCCCACAACGUGCAACUGACACUCCCACCCAGUCUCUGCUCCACCUUUCAGCCCACGUCACGUGUAGUGUCCAUUUUGUGAAGCCCUGUUGUGCCACAGAGUG: 0.646
ACUGAACACAUGUGUAUGAUACUAAAGACGGUAUUAAAAUGGAGCGACGUUUAUUUCAUCUCUUGUUUACGAUUUCACUAGGACUCAGAAACGAGAUCGGGAAGCAGAAA: 0.7
GCAAAGCCUAGCCUGCAUAUCAUUCACCCAAAACAAAGUAAUAGCGCCUCUUUUAUUAUUUUGACUGAAUGUUUUAUGGAAUUGAAAGAAACAUACGUUCUUUUCAAGAC: 0.659

Set 4
Target: Ras GTPase-activating protein-binding protein 1, C-terminal RGG region (G3BP1, Homo sapiens, UniProt Q13283)
UniProt Q13283, sequence (whole entry, looked up): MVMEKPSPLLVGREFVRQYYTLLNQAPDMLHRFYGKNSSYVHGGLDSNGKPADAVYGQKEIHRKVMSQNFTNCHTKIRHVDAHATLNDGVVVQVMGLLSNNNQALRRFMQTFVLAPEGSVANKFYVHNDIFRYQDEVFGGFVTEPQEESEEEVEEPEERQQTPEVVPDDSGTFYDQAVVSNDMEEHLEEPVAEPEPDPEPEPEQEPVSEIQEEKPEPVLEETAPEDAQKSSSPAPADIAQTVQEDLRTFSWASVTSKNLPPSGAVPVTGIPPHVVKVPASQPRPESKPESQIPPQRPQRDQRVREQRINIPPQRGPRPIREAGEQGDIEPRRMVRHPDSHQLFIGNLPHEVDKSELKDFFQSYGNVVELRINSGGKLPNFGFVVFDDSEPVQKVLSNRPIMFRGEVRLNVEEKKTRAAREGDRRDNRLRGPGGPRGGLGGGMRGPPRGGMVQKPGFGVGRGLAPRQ
Technique: RNA Bind-n-Seq
Form: RNA
Medium: in vitro
Tested at: 1 µM
Notes: whole 134-nt RNA, ends assumed
With: 150 mM KCl
Baseline: input library
Direction: higher = stronger binding
Quantity: log2 enrichment
Shared flanks, not repeated: GGGAGUUCUACAGUCCGACGAUC … UGGAAUUCUCGGGUGUCAAGG
AAGUCCUGUGCUACACAUCGUAUGUACCGAAUCAAACCCAAACCCAAACCCCCAAAAAAGUAUUAUGUUACGCCGUUCGGAUCUGCACUU: -1.15
GCAGGAAGUAAAAACAUAUGGAAAUGCUUCGGAUAGUGGCAGGGGUGGGGGUUGCUAAGGAAAGGGUGGGAUGGGAGUGGGUAAAGAGUU: 1.99
CUCAAGUCCUGUGCUACACAUCGUAUGUACCGAAUCGGAAGGGAAGGGGAAGGAAAGUAUUAUGUUACGCCGUUCGGAUCUGCACUUCCA: -1.17
UGGGAGGUGGAUUUUGUUUAUUUUUUUAGCUCAUUUCCAGGGGUGGGAAUUUUUUUUUAAUAUGUGUCAUGAAUAAAGUUGUUUUUGGAA: 2.25
AGUCCUGUGCUACACAUCGUAUGUACCGAAUCGGGGAAAGGGGAAAGGGGAAAGGGGAAAGUAUUAUGUUACGCCGUUCGGAUCUGCACU: 4.04
AGUCCUGUGCUACACAUCGUAUGUACCGAAUCGGAAAAAAGGAAAAAAGGAAAAAAGGAAAGUAUUAUGUUACGCCGUUCGGAUCUGCAC: -2.03
CCUCAAGUCCUGUGCUACACAUCGUAUGUACCGAAUCGGGUGGUGGGGUGGGGAAAGUAUUAUGUUACGCCGUUCGGAUCUGCACUUCCA: 0.501
CUCAAGUCCUGUGCUACACAUCGUAUGUACCGAAUCGGGGAAGGGAAGGAAGGAAAGUAUUAUGUUACGCCGUUCGGAUCUGCACUUCCA: -1.18
CUCAAGUCCUGUGCUACACAUCGUAUGUACCGAAUCGGGCGGGGCGGGGCGGGGAAAGUAUUAUGUUACGCCGUUCGGAUCUGCACUUCC: 2.41
CACAGACAACACGCACCCACACUGACACAGAGGGAAGGGGUUGGGAUGGGGACAGGGUGCACAGCAGGGCGGGGUAGGACCCCAGCCCCU: -0.251
CACAGACAACACGCACCCAUACAGACACAGAGGGAAGGGGUUGGGAUGGGGACAGGGUGCACAGCAGGGCGGGGUAGGACCCCAGCCCCU: 0.162
CUGUGCUACACAUCGUAUGUACCGAAUCGGGGUUUUUUUGGUUUUUUUGGGUUUUUUUGGGAAAGUAUUAUGUUACGCCGUUCGGAUCUG: -1.54
AAGUCCUGUGCUACACAUCGUAUGUACCGAAUCGGGGAAAGGGAAAGGGGAAAGGGGAAAGUAUUAUGUUACGCCGUUCGGAUCUGCACU: 1.02
UCCUGUGCUACACAUCGUAUGUACCGAAUCAAACCCAAACCCCCCCAAAUUUUUUUAAAAAAGUAUUAUGUUACGCCGUUCGGAUCUGCA: -0.62

Excerpt of the above (set 2):
GACGGTTCCGGGTTCGGGACGTGCTAG: 1.13 z-score
TTAGAAATGAGTCTCGATTAGTGCTAG: 3.16 z-score
TCATTTTTCTCACCACATACTGTGCTA: 1.74 z-score
TTAGATATCGACTATCGGTTAGTGCTA: 0.597 z-score
GACGGTTTCGTTTCCGGGACGTGCTAG: 8.31 z-score
GACGGACTGGGTCTCGGGAAGTGCTAG: -0.23 z-score
TTAGAACTGGGGACTGGATTCGTGCTA: -0.208 z-score
